Published values collected from several papers.
A part holds a random share of what one study measured.

Block 1
Target: Interferon regulatory factor 5, full length, phosphomimetic (IRF5, Homo sapiens, UniProt Q13568-2, residues 1-514, S451D/S453D/S456D/S462D)
Method: protein-binding microarray
Molecule type: double-stranded DNA, one strand shown
Matrix: in vitro
Tested at: 940 nM top
Notes: 60-bp whole probe
Together with: salmon DNA 0.4 mg/ml
Reference: random background probes
Direction: higher = stronger binding
Sequence | fitted relative affinity [z-score]
GCCTAGCACTCATCTCTGTTTATGTCACTGTGCTAGGTCTTGATTCGCTTGACGCTGCTG | 2.23
GCCTAGCACTAATTTTTTAGCTTCTCAATGTGCTAGGTCTTGATTCGCTTGACGCTGCTG | 0.471
GCCTAGCACTCAGTTTTGAGCTCTGTCTGGGTGCTAGTCTTGATTCGCTTGACGCTGCTG | 0.104
GCCTAGCACTTAGATATCAGACTGGATTGGTGCTAGGTCTTGATTCGCTTGACGCTGCTG | -0.289

Block 2
Target: Histone acetyltransferase KAT6A, winged helix 2, GST fusion (KAT6A, Homo sapiens, UniProt Q92794, residues 85-181)
Method: protein binding microarray
Molecule type: double-stranded DNA, one strand shown
Matrix: in vitro
Tested at: not given
Notes: 8-mer, flanks averaged, mean of 2 arrays, mostly near background
Reference: not given
Direction: higher = stronger binding
Target sequence (chain): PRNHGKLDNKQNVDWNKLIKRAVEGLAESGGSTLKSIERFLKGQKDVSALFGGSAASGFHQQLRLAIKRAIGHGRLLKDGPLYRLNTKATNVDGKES
Sequence | E-score
CGAACTCA | 0.108
CGAACATC | 0.128
GGTCGGGA | 0.206

Block 3
Target: Prothrombin, mature alpha-thrombin (F2, Homo sapiens, UniProt P00734)
Method: aptamer microarray, sandwich
Molecule type: DNA with 2'F-ANA
Matrix: in vitro
Tested at: 200 nM
Notes: whole 15-mer aptamer, many near background
Together with: Cy3 exosite-II aptamer, 400 nM
Direction: higher = stronger binding
Sequence | mean fluorescence intensity
GGTTGGTGTGGTTGG (2'F-ANA at 1 2 3 4 5 7 9 14 15) | 49.8 a.u.
GGTTGGTGTGGTTGG (2'F-ANA at 1 2 5 10 13 14) | 47.6 a.u.
GGTTGGTGTGGTTGG (2'F-ANA at 4 5 6 8 12 15) | 143 a.u.
GGTTGGTGTGGTTGG (2'F-ANA at 9 10 12 13) | 199 a.u.

Single results of other studies
Substance | target | test | test system | conditions | scale | quantity | result
PhoQ, residues 284 288 289 292 302 303 SSTLSG | PhoP, residues 12 14 15 18 19 DLLYY (Escherichia coli, UniProt P23836) | Sort-seq, measured: YFP reporter | E. coli | PhoQ-PhoP variant library, together with: 10 µM Mg2+ | reference: high Mg2+ state, higher = stronger signaling | fold induction | 0.798
